Assay results pooled from the literature.
Each line is one published result; not all experiments were run side by side. Several values in a cell are separate wells, animals, samples, runs or records. ± gives the spread as reported.
SLCO1B3: Solute carrier organic anion transporter family member 1B3 (SLCO1B3, Homo sapiens, UniProt Q9NPD5)
UniProt Q9NPD5, sequence (whole entry, looked up): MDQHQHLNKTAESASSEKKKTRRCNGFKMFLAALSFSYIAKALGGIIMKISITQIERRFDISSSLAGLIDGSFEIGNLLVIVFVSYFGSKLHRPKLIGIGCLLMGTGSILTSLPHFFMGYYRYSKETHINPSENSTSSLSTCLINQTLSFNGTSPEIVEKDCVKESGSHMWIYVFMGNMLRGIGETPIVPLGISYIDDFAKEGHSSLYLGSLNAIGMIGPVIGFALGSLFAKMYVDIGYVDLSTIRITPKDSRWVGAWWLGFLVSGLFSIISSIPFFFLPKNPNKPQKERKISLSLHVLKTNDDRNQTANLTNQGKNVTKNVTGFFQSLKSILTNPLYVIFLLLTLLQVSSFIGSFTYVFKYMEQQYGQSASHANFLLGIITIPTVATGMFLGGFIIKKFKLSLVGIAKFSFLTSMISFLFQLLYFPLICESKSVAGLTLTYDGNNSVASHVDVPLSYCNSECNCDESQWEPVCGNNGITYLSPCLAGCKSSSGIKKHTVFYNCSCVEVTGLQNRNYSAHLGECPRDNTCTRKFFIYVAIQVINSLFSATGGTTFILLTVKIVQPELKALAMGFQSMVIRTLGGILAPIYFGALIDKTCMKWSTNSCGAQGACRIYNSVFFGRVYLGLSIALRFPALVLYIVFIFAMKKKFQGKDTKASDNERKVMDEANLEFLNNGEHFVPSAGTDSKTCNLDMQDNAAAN
ABCG2: Broad substrate specificity ATP-binding cassette transporter ABCG2 (ABCG2, Homo sapiens, UniProt Q9UNQ0)
UniProt Q9UNQ0, sequence (whole entry, looked up): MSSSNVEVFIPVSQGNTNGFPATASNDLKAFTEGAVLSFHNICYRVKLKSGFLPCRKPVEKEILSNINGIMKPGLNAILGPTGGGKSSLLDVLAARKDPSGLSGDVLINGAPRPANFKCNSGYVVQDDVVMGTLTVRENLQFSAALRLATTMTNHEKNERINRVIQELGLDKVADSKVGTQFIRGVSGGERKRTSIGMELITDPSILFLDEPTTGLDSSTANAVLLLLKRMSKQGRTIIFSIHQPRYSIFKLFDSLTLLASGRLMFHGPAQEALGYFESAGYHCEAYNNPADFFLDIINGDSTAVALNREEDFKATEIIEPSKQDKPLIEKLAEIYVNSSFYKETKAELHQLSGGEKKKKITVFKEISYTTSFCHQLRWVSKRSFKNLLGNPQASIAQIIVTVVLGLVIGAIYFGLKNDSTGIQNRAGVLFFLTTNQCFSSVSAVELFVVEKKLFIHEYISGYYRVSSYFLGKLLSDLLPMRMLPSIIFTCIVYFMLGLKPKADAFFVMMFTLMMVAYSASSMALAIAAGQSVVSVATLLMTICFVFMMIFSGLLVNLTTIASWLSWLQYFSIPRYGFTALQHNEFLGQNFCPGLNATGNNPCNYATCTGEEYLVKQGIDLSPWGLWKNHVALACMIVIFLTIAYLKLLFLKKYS
CYP3A4: Cytochrome P450 3A4 (CYP3A4, Homo sapiens, UniProt P08684)
UniProt P08684, sequence (whole entry, looked up): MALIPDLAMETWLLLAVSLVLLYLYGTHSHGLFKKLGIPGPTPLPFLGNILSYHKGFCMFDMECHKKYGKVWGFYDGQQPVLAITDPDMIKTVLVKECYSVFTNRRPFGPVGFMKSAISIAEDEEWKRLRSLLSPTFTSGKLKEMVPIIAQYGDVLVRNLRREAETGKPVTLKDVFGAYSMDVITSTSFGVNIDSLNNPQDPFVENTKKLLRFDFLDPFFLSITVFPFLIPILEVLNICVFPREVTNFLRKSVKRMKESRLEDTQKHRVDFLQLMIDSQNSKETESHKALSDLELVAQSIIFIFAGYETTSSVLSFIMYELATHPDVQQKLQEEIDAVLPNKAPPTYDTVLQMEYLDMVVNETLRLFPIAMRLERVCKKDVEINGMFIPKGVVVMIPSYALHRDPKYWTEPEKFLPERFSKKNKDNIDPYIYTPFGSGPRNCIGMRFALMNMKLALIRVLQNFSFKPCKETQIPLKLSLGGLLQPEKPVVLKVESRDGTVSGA
UniProt O15439, sequence (whole entry, looked up): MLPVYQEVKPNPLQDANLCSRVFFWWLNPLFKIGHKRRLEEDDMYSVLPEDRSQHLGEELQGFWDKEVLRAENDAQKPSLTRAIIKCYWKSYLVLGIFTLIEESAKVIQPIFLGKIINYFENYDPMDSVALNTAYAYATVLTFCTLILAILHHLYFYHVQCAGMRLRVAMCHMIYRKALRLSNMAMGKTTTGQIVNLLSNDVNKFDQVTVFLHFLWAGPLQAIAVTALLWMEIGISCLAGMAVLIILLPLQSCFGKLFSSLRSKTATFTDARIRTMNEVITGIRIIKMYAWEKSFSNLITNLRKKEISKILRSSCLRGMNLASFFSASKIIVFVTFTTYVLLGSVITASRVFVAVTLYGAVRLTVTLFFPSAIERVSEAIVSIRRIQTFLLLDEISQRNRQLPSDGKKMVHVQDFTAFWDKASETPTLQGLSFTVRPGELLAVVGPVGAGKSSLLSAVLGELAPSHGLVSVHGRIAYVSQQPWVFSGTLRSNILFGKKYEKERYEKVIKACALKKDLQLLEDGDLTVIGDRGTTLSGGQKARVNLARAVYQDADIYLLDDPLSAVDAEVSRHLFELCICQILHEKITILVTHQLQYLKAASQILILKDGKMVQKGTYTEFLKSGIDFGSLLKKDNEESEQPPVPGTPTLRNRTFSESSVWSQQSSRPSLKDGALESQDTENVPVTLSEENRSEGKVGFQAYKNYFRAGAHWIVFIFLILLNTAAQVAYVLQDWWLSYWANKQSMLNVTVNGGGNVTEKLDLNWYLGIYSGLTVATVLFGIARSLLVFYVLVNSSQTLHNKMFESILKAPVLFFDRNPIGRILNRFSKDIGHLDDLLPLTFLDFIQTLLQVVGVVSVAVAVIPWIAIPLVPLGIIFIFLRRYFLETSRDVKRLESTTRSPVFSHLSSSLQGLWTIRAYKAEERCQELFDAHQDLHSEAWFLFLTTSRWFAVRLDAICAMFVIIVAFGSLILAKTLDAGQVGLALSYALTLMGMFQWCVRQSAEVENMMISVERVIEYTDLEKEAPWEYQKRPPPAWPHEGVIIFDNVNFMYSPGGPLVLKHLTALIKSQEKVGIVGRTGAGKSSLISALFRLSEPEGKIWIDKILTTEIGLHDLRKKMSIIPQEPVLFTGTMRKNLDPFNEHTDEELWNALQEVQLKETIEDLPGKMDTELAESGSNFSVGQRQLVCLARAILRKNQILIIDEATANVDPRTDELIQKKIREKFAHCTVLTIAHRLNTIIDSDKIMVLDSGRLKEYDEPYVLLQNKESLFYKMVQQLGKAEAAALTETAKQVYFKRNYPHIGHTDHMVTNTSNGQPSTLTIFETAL

Under “log overall stability constant”, `c1ccc(CN2CCCNCCNCCCNCC2)cc1` is recorded as > 43 (Pd(II); potentiometry and UV spectrophotometry; aqueous 1.0 M KCl; 25 °C, Pd2+ + L to PdL).
The cellular uptake of `CC(C)=CCC/C(C)=C/CCn1cc(CC(C)(P(=O)(O)O)P(=O)(O)O)nn1` is reported as 3.5 fold (SLCO1B3; OATP1B3-transfected cells; 50 µM, 5 min, pH 7.4; relative to: mock-transfected cells).
For `CC[C@H](C)[C@@H]1NC(=O)[C@H](CC(C)C)NC(=O)[C@@H](NC(=O)[C@H](CCC(N)=O)NC(=O)[C@H](CCCCN)NC(=O)[C@H](CC(N)=O)NC(=O)[C@H](Cc2ccc(O)cc2)NC(=O)[C@@H]2CCC(=O)NCC(=O)NCC(=O)NCC(=O)NCC(=O)N[C@@H](CCCNC(=N)N)C(=O)NCC(=O)N[C@@H](Cc3ccc(O)cc3)C(=O)N2)CSSC[C@@H](C(=O)O)NC(=O)[C@H](Cc2ccccc2)NC1=O`, proteolytic stability read “stable” (carboxypeptidase B; substrate, LC-MS; 20 h, room temperature).
For `CSc1nc2[nH]nc([N+](=O)[O-])c(=O)n2n1`, the inhibition was 22% (SLCO1B3; transport, inhibitor; transiently transfected cells; 100 µM, 10 (unit not given), added: CCK-8).
`Cc1ccc(N2CCN(C)CC2)cc1C(=O)N[C@H](C)c1cc(-c2cnn(C)c2)nc2ccccc12` has a viability of -0.272% (African green monkey cells; 500 µM).
Under “remaining intact peptide”, `CC(C)C[C@H](NC(=O)[C@H](CC(C)C)NC(=O)[C@H](CCCCN)NC(=O)[C@H](Cc1ccccc1)NC(=O)[C@@H](NC(=O)[C@H](CCCNC(=N)N)NC(=O)[C@@H](N)CCCCN)C(C)C)C(=O)N[C@@H](CCCCN)C(=O)N[C@@H](CCCNC(=N)N)C(=O)N[C@@H](Cc1ccc(O)cc1)C(=O)N[C@@H](Cc1c[nH]c2ccccc12)C(=O)N[C@@H](CCCNC(=N)N)C(=O)N[C@@H](CCC(N)=O)C(=O)N[C@@H](CC(C)C)C(=O)N[C@@H](CCCCN)C(=O)N[C@@H](CCCCN)C(=O)N1CCC[C@H]1C(=O)N[C@H](C(=O)N[C@@H](CCCNC(=N)N)C(=O)NCCOCCOCC(=O)O)C(C)C` is recorded as ~50% (trypsin; enzymatic degradation, HPLC; 2 h, 37 °C, peptide:enzyme 50:1).
`CC(CCC(=O)NCC(=O)O)C1CCC2C3C(O)CC4CC(OC5OC(C(=O)O)C(O)C(O)C5O)CCC4(C)C3CCC12C` (centres unmarked): “vesicle uptake ratio” 4.4 ± 0.5 (ATP-binding cassette sub-family C member 4 (ABCC4, Homo sapiens, UniProt O15439); substrate, membrane vesicle uptake; 0.2 µM, 10 min; relative to: ATP over AMP).
For `CC(C)(C)C(=O)OCOP(=O)(OCOC(=O)C(C)(C)C)C1CCCN(O)C1=O` (centres unmarked), the TGI was 59.7 µM (OVCAR-4).
With `CNC(=O)C1CCCN(C(=O)C2CC3CCC2N3C(=O)[C@@H]2C[C@@H](O)CN2C(=O)NCc2cccc(Cl)c2F)C1` (mixture of isomers) the 1-hydroxymidazolam formed was 1200 ng/mL (human CYP3A4; time-dependent inhibition; 16.7 µM, preincubation without NADPH, added: midazolam).
For `CC(=O)NCCCC[C@@H]1NC(=O)[C@H](Cc2c[nH]c3c(C)cccc23)NC(=O)[C@H]([C@@H](C)O)NC(=O)[C@H](CC(N)=O)NC(=O)[C@@H](NC(C)=O)C(C)(C)SSC(C)(C)[C@@H](C(=O)N[C@@H](Cc2ccc(OCCN)cc2)C(=O)N[C@@H](Cc2ccc3ccccc3c2)C(=O)NC2(C(=O)N[C@@H](CCC(=O)O)C(=O)N[C@@H](CC(N)=O)C(=O)N[C@@H](Cc3cccnc3)C(=O)N(C)CC(N)=O)CCOCC2)NC1=O`, the efflux ratio was 10.9 (ABCG2; transport, inhibitor; LLC-PK1 expressing ABCG2; 2.04 µM, 90 min, added: [3H]prazosin).
`Cc1cc(-c2ccc3ccccc3c2)nnc1NCCN1CCN(C)CC1` — result for inhibition: “negative” (SLCO1B3; transport; concentration not given).
For `O=C1NC2(CC2)COc2ncc(F)cc2[C@H]2COCCN2c2ccn3ncc1c3n2`, “serum LDH activity” read 723 ± 278 U/L (Sprague-Dawley rat, female, serum; oral, 2.5 mg/kg/day, end of treatment, 4-week subacute toxicity).
The specific binding of `O=C(O)c1ccc(-c2nc(-c3ccccc3Cl)c3sccn23)cc1` is reported as 104% (Cav1.2 calcium channel; radioligand binding; 10 µM; relative to: control).
For `CNC(=O)C1OC(n2cnc3c(NCc4cccc(I)c4)ncnc32)C(O)C1O` (centres unmarked), the inhibition was 48.8% (ABCG2; transport, inhibitor; 100 µM, 5 (unit not given), pH 7, added: CCK-8).
For `CCn1ccc(-c2cc([C@@H](C)NC(=O)c3cc(OC[C@@H]4CCN4C)ccc3C)c3ccccc3n2)n1`, the viability was 0.299% and 0.597% (Vero E6; 250 µM).
`CC[C@H](C)[C@@H]1NC(=O)[C@H]([C@@H](C)O)NC(=O)CNC(=O)[C@H](CCCNC(=N)N)NC(=O)[C@H](CC(C)C)NC(=O)[C@@H]2CSSC[C@H](NC1=O)C(=O)N[C@H](C(=O)N[C@@H](CO)C(=O)NCC(N)=O)CSSC[C@H](NC(=O)[C@H](C)N)C(=O)N[C@@H](C)C(=O)N[C@@H](Cc1c[nH]c3ccccc13)C(=O)N2` gave a cleavage of ~10% (Chymotrypsinogen A, activated (alpha-chymotrypsin) (Bos taurus, UniProt P00766); substrate, RP-HPLC/ESI-MS; 30 µM, 32 h, pH 7.4, 37 °C, PBS, ratio 1:1000, added: bovine α-chymotrypsin 30 nM).
For `CCN(CC)CCOc1ccc(-c2nnn(Cc3ccc(OC)cc3)c2N)cc1`, the IC50 was 0.66 µM (Solute carrier family 22 member 2 (SLC22A2, Homo sapiens, UniProt O15244); transporter uptake, inhibitor).
With `O=C(CN1C(=O)C2(CCN(C(=O)c3ccc4[nH]ncc4c3)CC2)c2c(Br)cccc21)NCC(F)(F)F` the IC50 was 13 µM (CYP3A4; enzyme activity, inhibitor).
For `COc1ccccc1-c1n[nH]c2nc(NC3CCN(C(=O)Cc4ccc(F)cc4F)CC3)ncc12`, the relative abundance was 0.42 (bead binding, competition bead pull-down, refers to: LINJ.36.0600; Leishmania donovani axenic amastigote extract; 10 µM; relative to: vehicle).
`CN[C@@H]1[C@H](O)[C@H](NC)[C@H]2O[C@]3(O)[C@H](O[C@@H]2[C@H]1O)O[C@H](C)C[C@H]3NC(=O)Cc1cc(Cl)ccn1` has an inhibition of 4% (CYP3A4; 10 µM).

Repeated from above:
Under “remaining intact peptide”, `CC(C)C[C@H](NC(=O)[C@H](CC(C)C)NC(=O)[C@H](CCCCN)NC(=O)[C@H](Cc1ccccc1)NC(=O)[C@@H](NC(=O)[C@H](CCCNC(=N)N)NC(=O)[C@@H](N)CCCCN)C(C)C)C(=O)N[C@@H](CCCCN)C(=O)N[C@@H](CCCNC(=N)N)C(=O)N[C@@H](Cc1ccc(O)cc1)C(=O)N[C@@H](Cc1c[nH]c2ccccc12)C(=O)N[C@@H](CCCNC(=N)N)C(=O)N[C@@H](CCC(N)=O)C(=O)N[C@@H](CC(C)C)C(=O)N[C@@H](CCCCN)C(=O)N[C@@H](CCCCN)C(=O)N1CCC[C@H]1C(=O)N[C@H](C(=O)N[C@@H](CCCNC(=N)N)C(=O)NCCOCCOCC(=O)O)C(C)C` is recorded as ~50% (trypsin; enzymatic degradation, HPLC; 2 h, 37 °C, peptide:enzyme 50:1).
`CC(CCC(=O)NCC(=O)O)C1CCC2C3C(O)CC4CC(OC5OC(C(=O)O)C(O)C(O)C5O)CCC4(C)C3CCC12C` (centres unmarked): “vesicle uptake ratio” 4.4 ± 0.5 (ATP-binding cassette sub-family C member 4 (ABCC4, Homo sapiens, UniProt O15439); substrate, membrane vesicle uptake; 0.2 µM, 10 min; relative to: ATP over AMP).
